Results of several laboratories.
Parts stem from different laboratories: compare values within a part only.

Sample 1
Target: RNA binding protein fox-1 homolog 2, RRM domain, GST-SBP tag (RBFOX2, Homo sapiens, UniProt O43251-10, residues 100-194)
Method: RNA Bind-n-Seq
Form: RNA
Matrix: in vitro
Tested at: 365 nM
Setting: natural RNA segment, single round, ends assumed
Relative to: no-protein control
Direction: higher = stronger binding
All sequences stand within: GGGAGUUCUACAGUCCGACGAUC … UGGAAUUCUCGGGUGCCAA
Residues (chain): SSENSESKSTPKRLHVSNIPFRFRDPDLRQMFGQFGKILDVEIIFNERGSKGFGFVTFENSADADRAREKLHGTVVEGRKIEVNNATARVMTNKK
| Sequence | RBNS enrichment (R) |
| --- | --- |
| GUGGAGAAAGAGAAGGCAAACGUUGGAACACUAGGAAAAGCUAGAAAUUCAGACAACACACAUGGAUCCCCUUAAAACAUGUAAAUGUGUCAGAACACGGUUGACCUGCC | 0.688 |
| CUGAAGCCUGUGAAUGAUGUCUGGUACACCACAGUGUUUUCUCCAGAGAACUGGCCUAAGCUCUAGAUUAGCCAAGAAAGCUGGAAAACAGAGCGCCAGGCUUCACUCUG | 0.323 |
| AGAUGGAGAUGAGGUACAUCAGGGGACCUUAAGAUGCCUGAGCCCAUCUUUUAACUCUAACACAGGGAUACUAACCUUUUUCCCUGGCUAAGACAGACUGAGGGCAUUGC | 0.426 |
| ACAAAUGUGAAUCAAGCAGUCCGGCAUUCUGGAAAGCCUUGGCAUGGUUCUGUAAAGCUCUUGUACCGCUGGAGAAACGGCAUCACUAUAAGCUAUGAGUUGAACUGUUU | 0.507 |
| GAAUGAAAUCCUGGAACUCAGAGUUAAAUUAAGAACAAGGCAUCCCACAGAACCUAAUCUGAACAAUCCCCGAUGAUUCCCUCUGCUUUUUGAAUGCUUCCAAGACUUAU | 1.44 |
| AAUCAACUGAACAUAUAUGUAAGAGUUAUUUAAAUUUUGAAAUUGGGACGUAUACAUUCUCCAUUCUUUUUGACAUUAUUUUGGCUAAUCUGGGUCCUCUGCAUUUCUGU | 0.656 |
| AAAUAUUUCUGUAACUUAAGAAACCUGACAUUUAUGUCAUAUUUUCUCUUUAGGUAAGAUUUGGUUUGUUUGUGUCUUGUUUGUUUCCCUCUCCAAAUUCUUCCUUCUUU | 0.921 |
| CAGCAACAGAACACUUGACCUUAAAAGUCUCUUCUGGUCUUUGGAUUAGAAAAGGCUUAUGUUAGCAUAGCUUAAGAGCAACCUCAGAGAUUUGAGCCCUACUAAGUGAC | 0.363 |

Sample 2
Target: Histone acetyltransferase KAT6A, winged helix 2, GST fusion (KAT6A, Homo sapiens, UniProt Q92794, residues 85-181)
Method: protein binding microarray
Form: double-stranded DNA, one strand shown
Matrix: in vitro
Tested at: not given
Setting: 8-mer, flanks averaged, mean of 2 arrays, mostly near background
Relative to: not given
Direction: higher = stronger binding
Residues (chain): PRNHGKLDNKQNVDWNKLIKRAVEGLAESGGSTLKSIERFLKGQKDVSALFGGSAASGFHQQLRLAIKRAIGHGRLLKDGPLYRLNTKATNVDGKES
| Sequence | E-score |
| --- | --- |
| CCATCCGA | -0.0095 |
| CCCGCACA | 0.123 |
| ACCGTTGG | -0.117 |
| GAACAATA | 0.268 |
| ATCCCGAC | 0.158 |
| AAGGTGGA | 0.0576 |
| AGAGAGAC | -0.112 |
| CGCCGCAA | 0.14 |
| TAGTGTCA | 0.0813 |
| AGTGTATC | -0.136 |
| GCCAAGCA | -0.0108 |
| AGCTGAGA | -0.0354 |
| CAAGCTTC | 0.00927 |
| CCCTTTAA | 0.0135 |
| CTCCTTCC | -0.138 |
| GCCCTGAC | -0.0648 |
| GTAGTTTA | 0.0803 |
| AAGTTCGA | 0.128 |
| CCACTTAG | 0.0367 |

Sample 3
Target: RING finger protein unkempt homolog, zinc fingers 1-6, GST-SBP tag (UNK, Homo sapiens, UniProt Q9C0B0, residues 30-357)
Method: RNA Bind-n-Seq
Form: RNA
Matrix: in vitro
Tested at: not given
Setting: RNA with constant flanks, ends assumed
Relative to: input RNA pool
Direction: higher = stronger binding
All sequences stand within: GGGAGUUCUACAGUCCGACGAUC … CAACAGAGGAUUGAGCAUCA
Construct (chain): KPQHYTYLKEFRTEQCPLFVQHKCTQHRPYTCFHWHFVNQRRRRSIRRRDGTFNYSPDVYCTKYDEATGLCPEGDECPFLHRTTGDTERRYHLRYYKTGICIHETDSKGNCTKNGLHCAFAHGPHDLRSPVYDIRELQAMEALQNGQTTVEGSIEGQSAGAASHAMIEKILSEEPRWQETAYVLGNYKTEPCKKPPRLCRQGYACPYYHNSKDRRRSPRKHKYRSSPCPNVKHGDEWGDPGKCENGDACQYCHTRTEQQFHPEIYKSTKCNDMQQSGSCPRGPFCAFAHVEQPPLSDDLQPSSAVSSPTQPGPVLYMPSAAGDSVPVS
| Sequence | bound/input enrichment [ratio] |
| --- | --- |
| CGCGUCCCCUUCUCGCUCCUGCGGGGCCCCAGCUGGGACCCCUUCCGCGACUGGUACCCGCACCGCCGCCUCUUCGACCAGGCCUUCGGGCUGCCCCGGCUGCCGGAGGAGUGGUCGCAG | 0.163 |
| GGAGCCAGACAUAUGGAAAGUGAGAAACUUGCUCAAAUAUUGGCAGCUAGACAGUCCGAAAUUAAACAGAUUCCAUCUGAUGGCCACUGUAUGUAUAAAGCCAUUGAAGAUCAACUGAAA | 0.202 |
| AUUGGUGGUGCUUCUAGUCGAGGUGAAAAUUCUUAUGGACUAGAAACUGUGUGUAAGGAUAUCCGGAAUUUACGAUUUGCUCAUAAACCUGAGGGGCGGACAAGAAGAUCCAUAUUUGAG | 0.189 |
| ACUACGCUGCGACAACGCAGAAAGCCAGUCUUCCACUUGUCCCAUGAGGAACGUGUCCAACACCGAAAUAUUAAAGACCUUAAACUGGCCUUCAGUGAGUUCUACCUCAGUCUAAUCCUG | 0.115 |
| CGCGUGCGUGCGUGUGUGUGCGCGCGCUAGUGUGUGGACAAGGAGGUGGGGGCAGCUGAGUCCGAGUCCCAACUCUUGGACUCCAUUUGCUAUUCUCUUCUUUCUCCCCCACACCUAUCU | 0.0907 |
| CUCAGCCUGGGCGGCAACCAGCUGCAGAGCAUCCCCGCCGAGAUCGAGAACUUGCGGAGUUCCGAAUGUUUAUACCUUGGAGGAAACUUCAUUAAAGAAAUCCCACCAGAAUUAGCAAAU | 0.825 |
| GGGAACUCCACUCGGGGAACUCCUUUCCAAGCUGACCUCAGUUUUCUCACAAGAACCCAGUCCGCUGAUGUUUUAUUGUAAUUGUCUUAAUUUGCUAAGAACAAGUAAUAAGUAAAUUUU | 0.683 |
| CCCACUGUCCCAUAUAUAUUCCUUUGUUGUUCUUGAGUGGACCAGGUUACACACUUAAACUCCGGGAGGUAAGACAAGAGUCCCAGUUAAAAUAUCUAUGUCCUAGAGAAGCAUCCACUU | 0.659 |

Sample 4
Target: Sal-like protein 4, full length isoform B (SALL4, Homo sapiens, UniProt Q9UJQ4-2, residues 1-616)
Method: universal PBM
Form: double-stranded DNA, one strand shown
Matrix: in vitro
Tested at: not given
Setting: 8-mer, flanks averaged, mean of replicates
Direction: higher = stronger binding
Construct (chain): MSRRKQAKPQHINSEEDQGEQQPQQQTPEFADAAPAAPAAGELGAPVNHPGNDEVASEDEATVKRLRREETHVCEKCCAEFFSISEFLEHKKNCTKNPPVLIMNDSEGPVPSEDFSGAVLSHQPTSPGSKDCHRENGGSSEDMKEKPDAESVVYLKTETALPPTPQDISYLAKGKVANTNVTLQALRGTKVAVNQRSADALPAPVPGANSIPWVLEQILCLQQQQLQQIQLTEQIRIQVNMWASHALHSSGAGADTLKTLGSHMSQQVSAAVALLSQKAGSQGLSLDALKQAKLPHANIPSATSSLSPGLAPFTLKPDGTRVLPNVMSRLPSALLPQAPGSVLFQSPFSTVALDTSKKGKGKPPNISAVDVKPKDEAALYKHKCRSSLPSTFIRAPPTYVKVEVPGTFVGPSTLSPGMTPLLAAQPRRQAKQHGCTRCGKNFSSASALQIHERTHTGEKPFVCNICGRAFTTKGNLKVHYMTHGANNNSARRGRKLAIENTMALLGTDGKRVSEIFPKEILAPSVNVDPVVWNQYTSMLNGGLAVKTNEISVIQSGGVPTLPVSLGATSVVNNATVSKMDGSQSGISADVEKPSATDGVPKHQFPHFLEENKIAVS
| Sequence | E-score |
| --- | --- |
| CCACACGA | -0.0659 |
| CATTTCCA | 0.143 |
| CGGTGCAG | -0.24 |
| CGGTCGTC | -0.256 |
| AATTAATT | 0.378 |
| ATAATCAC | 0.302 |
| CACATTGC | 0.0201 |
| CGGACACG | -0.228 |
| ACCATAAC | 0.257 |
| ACGTTGCT | 0.0448 |
| CAACTCAC | -0.0197 |
| GGTCGGCA | -0.21 |
| CCTTTTAA | 0.15 |
| CGTCAGAA | -0.0891 |
| CAACAGTC | 0.0148 |
| GAGTACCA | 0.0172 |
| GGTTCAAA | -0.0117 |

Excerpt of the above (sample 4):
| Sequence | E-score |
| --- | --- |
| ATAATCAC | 0.302 |
| CACATTGC | 0.0201 |
| CGGACACG | -0.228 |
| ACCATAAC | 0.257 |
| ACGTTGCT | 0.0448 |
